Published values collected from several papers.
A part holds a random share of what one study measured.

Study 1 — technique: protein-binding microarray; form: double-stranded DNA, one strand shown; medium: in vitro; tested at: 250 nM; setting: 60-bp whole probe; added: salmon DNA 0.4 mg/ml; relative to: random background probes; reading: higher = stronger binding; constant ends, left off below: GCCTAGCAC … GTCTTGATTCGCTTGACGCTGCTG
Target: Interferon regulatory factor 7, full length, phosphomimetic (IRF7, Homo sapiens, UniProt Q92985, residues 1-503, S101K/S471D/S472D/S475D/S476D/S477D/S483D/S484D/S487D)
Construct (chain): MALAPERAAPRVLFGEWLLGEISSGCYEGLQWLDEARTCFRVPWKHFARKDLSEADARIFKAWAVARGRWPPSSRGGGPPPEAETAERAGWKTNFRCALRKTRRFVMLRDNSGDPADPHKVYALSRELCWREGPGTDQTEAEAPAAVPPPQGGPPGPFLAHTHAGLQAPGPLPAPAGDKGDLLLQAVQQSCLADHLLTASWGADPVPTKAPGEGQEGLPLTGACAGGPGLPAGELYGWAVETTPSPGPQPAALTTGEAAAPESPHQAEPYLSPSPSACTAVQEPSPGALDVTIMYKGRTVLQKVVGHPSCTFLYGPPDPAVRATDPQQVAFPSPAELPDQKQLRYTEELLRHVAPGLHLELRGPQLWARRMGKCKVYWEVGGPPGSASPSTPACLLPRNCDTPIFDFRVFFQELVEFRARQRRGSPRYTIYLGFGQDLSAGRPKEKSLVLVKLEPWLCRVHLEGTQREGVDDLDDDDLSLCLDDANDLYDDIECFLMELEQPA
Sequence | log fluorescence [z-score]
GTAGGTATCCTTATCCTTTAGTGCTAG | -0.0779
TTAGATATCGGGTATGGATTAGTGCTA | -0.0279
TTAGGTATCCACACTGGGTTAGTGCTA | -0.413
AACGGTCTCGGTCTCGGGACGTGCTAG | 1.13
GACGAACCGAGTCTCGAGACGTGCTAG | 1.54
TCAGTTATCACTTCCAAACTGTGCTAG | 0.602
GACGATATCACTCTCGAGACGTGCTAG | 0.16
TTAGATATCATTATCGATTAGTGCTAG | 0.317
TCATTTTGGTTTCTGGTACTGTGCTAG | 2.49
GACGGACTGGACTATCGAGACGTGCTA | -0.442
TTAGGGATCGGGACTGGGTTAGTGCTA | -0.423
TCATACCTCATCTTTCCCACTGTGCTA | 1.1
TCAGTTCTCCCTTTCAGTTTGTGCTAG | 1.8
TTAGATCTCAGACTGGCTTAGTGCTAG | -0.0584
TTAGGACTGGGGGCTGGGTTAGTGCTA | 1.29
TCAGTTTTACTTTCTATACTGTGCTAG | 2.03
TTAGATTTCTGTCTCGATTAGTGCTAG | 0.935
TTAGGTATCGACTTTCGTTTAGTGCTA | 3.6
TTAGCTTTCGACTTTCGGTTAGTGCTA | 2.96
GAGGTTTTCTAATGTTTTTTAGTGCTA | 0.401
GTGGCTCACACCTGTCATCCCGTGCTA | -0.452

Study 2 — technique: RNA Bind-n-Seq; form: RNA; medium: in vitro; tested at: 365 nM; relative to: no-protein control; reading: higher = stronger binding
Target: RNA binding protein fox-1 homolog 2, RRM domain, GST-SBP tag (RBFOX2, Homo sapiens, UniProt O43251-10, residues 100-194)
Setting: natural RNA segment, single round, ends assumed
Constant ends, left off below: GGGAGUUCUACAGUCCGACGAUC … UGGAAUUCUCGGGUGCCAA
Residues (chain): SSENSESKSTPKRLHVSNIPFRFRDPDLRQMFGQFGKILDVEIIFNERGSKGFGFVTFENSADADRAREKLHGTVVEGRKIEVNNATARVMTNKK
Sequence | RBNS enrichment (R)
CCAGAAAGCCUGACAUGAAGGAAGAGGAGACUCUUCGAGGAGCACUUUGGGUCCGGAGGGCGAGACUCCGGCAGACGCAUUCCCGGGCAGGUGACCAAGCACGGUCCCUC | 0.361
CAUGGGCAGCAAAUGGAAAGUCUUCCAAUCAGUACUCCAGGCCUUGAACACGUGCACACAUGAGUUCCAAUUUUGCUUCCUUUUGUUAUAAUGUUUCAACAAACAGAAGG | 2.01
AUGUGCUCAGCUGGGGGUGUGGACAGGUAGGGGUGGGGAAAGAAGAGGCUCUGCGUUCUGGGGGCUUUUUCUUCUCCUCCCCCUACCCGGUUUCCCUCCCUGUUUUCCUA | 0.22
AUUCCUCAGGGACAGGUACCUGUACCUACCCCGAUUCCAAACCUACCUGCCUGGUGAGAACUCCUGCCCCUGCCUACAAAGGGUACACAACCUACCCAUCAUCCCUAGUG | 0.542
GACUUCACUGCAUUAGACCCUAUAGCUGGUCUCACAAGACACUUUGUGCCCAGCUGUCACUCACUCAGCAGCUUCCUUGCAGCAGAGCAGGGCUGAGGGGAAGGGGCUAU | 0.546
UGGGCCUCGCCUCUGUCCUCAGGUCCUCUCAGAGGCAGAUACCUAGGGGAGCUGCUGCUGCCUGCUCAUUCUAGCUUCCGAUUCCAUUCCCAGCCCCUGCGUUAAGGUCC | 0.416
CCACCGCGUCUUGUCUGCAGCUUCUUGGCCAAUGUAGUAAUGCUUUUAGUAGAGUAAUAGGUAGUAUCAGUUUGGAUUCUUAUUGUUAUCACCUAUGUACAAUGGAGAGG | 0.368
AUUUGUUUUUCUUAUCCAAGUAAAGAUGUCAAUAGGAAUUGCAUUAGUCCAAGGCCUUUUUCAUAAACUGAGCCUCUUUUCAAUUAUUUCAAUGGGACAGGAACUAGGAU | 0.337
AAAGCUGAAGCACGUUUCAUAUGAAGCCAGUUCAGUGGCCUUGUUUAUUUCAAGACAAUGCCUUAUAUCACAUUGGAGGAGUUUGAAUACUUAACAGGUUCUUUGUCAAC | 0.306
CUCUUCACCCAAUGAUGACCUGACCAUGCCUGCCUGCUGAUCAGUUAACUGGUAAUCGCCUUUGCUUGCCUGUCGUCAGUGCAGCGAGCUGAGGCACUUGUCCGUUCGUC | 0.538
GUGUAUUUUAGAAAUUACCUGAAGUGAAGCUAUCACGAAGUGAGUGUAUCACCUGGUGAGCGAGUGACUGAAACCUGCUCUGGUCUGGGUUUGACCAGGUUAGGACUAUU | 0.24
AAUUGCUAUUUUUAUAGCUGAUAUAGUUACACCUCAAGCCCCUCAGGGGUAACAACUAACAAACACCCAAACUGUUUGGAUUGAUUGCUUUAAAAAACAAACCUGGCUCU | 0.304

Study 3 — target: UBE2N UBC core domain (UniProt P61088); technique: yeast two-hybrid; medium: yeast; setting: mostly zero background; relative to: not given; reading: higher = stronger interaction
B1: RNF43 RING domain (UniProt Q68DV7); chain SGSSCSSAPVCAICLEEFSEGQELRVISCLHEFHRNCVDPWLHQHRTCPLCMFNITEGDSFS
B2: RNF112 RING domain (UniProt Q9ULX5); chain QPMAPRELPTCSICLERLRDPISLDCGHDFCIRCFSTHRLPGCEPPCCPECRKICKQKRGLR
B3: RNF149 RING domain (UniProt Q8NC42); chain EKGIDVDAENCAVCIENFKVKDIIRILPCKHIFHRICIDPWLLDHRTCPMCKLDVIKALGYW
B4: PEX2 RING domain (UniProt P28328); chain DNTLATSGKECALCGEWPTMPHTIGCEHIFCYFCAKSSFLFDVYFTCPKCGTEVHSLQPLK
B5: RNF150 RING domain (UniProt Q9ULK6); chain DKETESDFDNCAVCIEGYKPNDVVRILPCRHLFHKSCVDPWLLDHRTCPMCKMNILKALGIP
B6: RNF175 RING domain (UniProt Q8N4F7); chain LPTRSLSDNICAVCGQKIIVELDEEGLIENTYQLSCNHVFHEFCIRGWCIVGKKQTCPYCKEKVDLKRMIS
B7: RNF32 RING domain (UniProt Q9H0A6); chain SLLQGDSVQPCPICKEEFELRPQVLLSCSHVFHKACLQAFEKFTNKKTCPLCRKNQYQTRVIH
B8: NSMCE1 RING domain (UniProt Q8WV22); chain RETYPDAVKICNICHSLLIQGQSCETCGIRMHLPCVAKYFQSNAEPRCPHCNDYWPHEIPKV
B9: TRIM52 RING domain (UniProt Q96A61); chain PMQTLQEEAVCAICLDYFKDPVSISCGHNFCRGCVTQLWSKEDEEDQNEEEDEWEEEEDEEAV
B10: TRIM38 RING domain (UniProt O00635); chain STKKMMEEATCSICLSLMTNPVSINCGHSYCHLCITDFFKNPSQKQLRQETFCCPQCRAPFHMDSLRP
B11: TRIM55 RING domain (UniProt Q9BYV6); chain TMDNLEKQLICPICLEMFTKPVVILPCQHNLCRKCASDIFQASNPYLPTRGGTTMASGGRFRCPSCRHEVVLDRHG
B12: ANKIB1 RING domain (UniProt Q9P2G1); chain LSPGDLDTSLCDICMCSISVFEDPVDMPCGHDFCRGCWESFLNLKIQEGEAHNIFCPAYDCFQLVPVDIIE
Target sequence (chain): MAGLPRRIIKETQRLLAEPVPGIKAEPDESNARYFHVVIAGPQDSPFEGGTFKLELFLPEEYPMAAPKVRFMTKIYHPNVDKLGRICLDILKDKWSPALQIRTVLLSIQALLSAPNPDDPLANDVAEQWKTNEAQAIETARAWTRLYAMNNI
Molecule | lacZ reporter activity
B1 (RNF43 RING domain) | 7490
B2 (RNF112 RING domain) | 0
B3 (RNF149 RING domain) | 0
B4 (PEX2 RING domain) | 0
B5 (RNF150 RING domain) | 0
B6 (RNF175 RING domain) | 0
QLQDEEDDSLCRICMDAVIDCVLLECGHMVTCTKCGKRMSECPICRQYVVRAVHVF (RNF34 RING domain (UniProt Q969K3)) | 0
B7 (RNF32 RING domain) | 0
B8 (NSMCE1 RING domain) | 0
ISNDSETLEECMVCSDMKRDTLFGPCGHIATCSLCSPRVKKCLICKEQVQSRTKIE (MIB1 RING domain (UniProt Q86YT6)) | 0
B9 (TRIM52 RING domain) | 0
B10 (TRIM38 RING domain) | 0
B11 (TRIM55 RING domain) | 0
SYEDKSNDFVCPICFDMIEEAYMTKCGHSFCYKCIHQSLEDNNRCPKCNYVVDNIDHLY (COP1 RING domain (UniProt Q8NHY2)) | 0
B12 (ANKIB1 RING domain) | 0
LKQVSIRENCCSLCCDEVADTQLKPCGHSDLCMDCALQLETCPLCRKEIVSRIRQI (RSPRY1 RING domain (UniProt Q96DX4)) | 0

Study 4 — technique: protein binding microarray; form: double-stranded DNA, one strand shown; medium: in vitro; tested at: not given; relative to: not given; reading: higher = stronger binding
Target: Histone acetyltransferase KAT6A, winged helix 1, GST fusion (KAT6A, Homo sapiens, UniProt Q92794, residues 1-85)
Setting: 8-mer, flanks averaged, mean of 2 arrays, mostly near background
Residues (chain): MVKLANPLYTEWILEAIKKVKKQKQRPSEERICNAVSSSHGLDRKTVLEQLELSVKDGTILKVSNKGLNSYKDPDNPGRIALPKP
Sequence | E-score
AGTGTAAC | -0.14
CATGTTAG | -0.121
AAGAGAGA | -0.313
CTGGCAAA | -0.241
ATCATGTC | -0.0341
AGGACGAT | -0.0612
AATTCTGT | -0.065
AGAACCTG | -0.246
AAACTTAG | -0.112
AAGTAAAA | -0.259
ACGGACGC | 0.26
CATCCACG | 0.0159
CGCTAAAC | 0.233
CAGTCCAC | -0.175
ATGCGGAC | 0.236
GGCGACAA | 0.0696
CCAACAAA | -0.142
CTAGAACC | -0.0678
CATAGCGC | 0.256
CGTTATCC | -0.0994
CAGTTCAA | 0.0538
CTGGGTTC | -0.0969
GGCTTACC | 0.155
AATTTAAG | -0.129
AAGACGGG | 0.225

Repeated from above (study 4):
Sequence | E-score
AGGACGAT | -0.0612
AATTCTGT | -0.065
AGAACCTG | -0.246
AAACTTAG | -0.112
AAGTAAAA | -0.259
ACGGACGC | 0.26
CATCCACG | 0.0159
CGCTAAAC | 0.233
CAGTCCAC | -0.175
ATGCGGAC | 0.236
